Results of several laboratories.
Parts stem from different laboratories: compare values within a part only.

Series 1
Target: Histone acetyltransferase KAT6A, both winged helices, GST fusion (KAT6A, Homo sapiens, UniProt Q92794, residues 1-181)
Technique: protein binding microarray
Form: double-stranded DNA, one strand shown
Medium: in vitro
Tested at: not given
Notes: 8-mer, flanks averaged, mean of 2 arrays, mostly near background
Reference: not given
Direction: higher = stronger binding
Target sequence (chain): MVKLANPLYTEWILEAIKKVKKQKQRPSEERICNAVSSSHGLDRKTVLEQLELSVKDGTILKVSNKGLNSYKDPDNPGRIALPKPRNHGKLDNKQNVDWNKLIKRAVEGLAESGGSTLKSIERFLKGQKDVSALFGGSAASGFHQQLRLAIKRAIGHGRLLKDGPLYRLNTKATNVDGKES
| Oligonucleotide | E-score |
| --- | --- |
| AGTCTATC | -0.0946 |
| GATGTGGA | 0.0215 |
| CAACACGA | -0.0919 |
| CGTCATTC | 0.106 |
| CGCTGTTC | 0.22 |
| TAGCACTA | -0.194 |
| TCCCTGAA | -0.0801 |
| GCTGCTAC | -0.0986 |
| TAATCGCA | 0.0914 |
| TAGCCAAA | -0.0838 |
| ATCTCACA | -0.033 |
| TTATCGAA | -0.0211 |
| CCGCTATC | 0.162 |
| CAATATTG | -0.212 |
| CGCCTTAC | 0.0753 |
| AATCGGCA | 0.155 |
| CACGTGCA | -0.0988 |

Series 2
Target: Phosphate system positive regulatory protein PHO4, full length, GST-tagged (PHO4, Saccharomyces cerevisiae, UniProt P07270, residues 1-312)
Technique: competition protein-binding microarray
Form: double-stranded DNA, one strand shown
Medium: in vitro
Tested at: 2 µM
Notes: whole 60-bp probe, lowest competitor level
Together with: Cbf1 competitor, 0.05 µM
Direction: higher = stronger binding
Constant ends, left off below: … GTCTTGATTCGCTTGACGCTGCTG
Construct (chain): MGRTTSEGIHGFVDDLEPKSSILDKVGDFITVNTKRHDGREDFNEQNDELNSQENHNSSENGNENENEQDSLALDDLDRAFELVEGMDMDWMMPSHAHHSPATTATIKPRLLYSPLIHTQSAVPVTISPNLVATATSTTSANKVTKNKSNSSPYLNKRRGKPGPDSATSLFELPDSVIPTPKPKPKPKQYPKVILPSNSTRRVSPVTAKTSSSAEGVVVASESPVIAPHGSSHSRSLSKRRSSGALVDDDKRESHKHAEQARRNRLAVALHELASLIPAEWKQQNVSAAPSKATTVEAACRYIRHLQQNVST
| Oligonucleotide | fluorescence intensity [a.u.] |
| --- | --- |
| CATACCCAACCTTGGACGGTGGGTGAAGATATTTGT | 3560 |
| CTAACGAAGGTTTGCCAAGTGGGTGACAAGCCAAGT | 4090 |
| CTAACGAAGGTTTGTCACCCTACTTACAAGCCAAGT | 3420 |
| ACTCCCTGCGCCTATGCCGTGCCAGAGCAAATAAAG | 6240 |
| CTTTCCCGATCTTTTCACGTGATGTTAGCACATTTG | 13600 |
| GTCTTGTCTCATTTTCACGTGTCATTCCCCACTTCA | 11900 |
| AAAGCGGTAATTTGCTAAGTGGGTGCAGATATCTAT | 3820 |
| CTAACGAAGGTTTGAAGAGTGGGTGACAAGCCAAGT | 3630 |
| CGCCATCTTGGGCCCCGCGTGTTCCCGCCTTAGCGG | 9700 |
| ATTTTTCCTGTCCTGCAATTGTTCTCGAGGATTGCT | 3150 |
| GGTAAGAAAAACCGACGCGTGGCCGACATCGAGTAG | 9540 |
| CTATTACGGGCTTGGCTTGTGAAACTTTTCCTATAT | 3270 |
| TTTCGTGTAGCATCGCACGTCAGACATGGATGCAAC | 4860 |
| CGAAGCACTCTCCAACACGTGACTCGGATAACGACC | 17200 |
| ACTTTAAGACGAGACCTCGTGGAACCAAGATCGGTG | 12900 |
| CCAATTAACCAAAGCCACGTGGATTTGTCATCAGAG | 20000 |
| GATGGATTCAGTCCACACATGAGATTCGCAGGATGT | 5850 |
| GAAACAGAACTCGCTGATGTGATATTCACCATTCCA | 3190 |
| TGGGATAATATCTTCCACGTGATGGTTGAACAACCA | 15600 |
| CTTCTGTAAATTTTTCACGTGGCATGAAGCGCCCCG | 13300 |
| CATACCCAACCTTGCCCGGTGGGTGAAGATATTTGT | 3910 |

Series 3
Target: RING finger protein unkempt homolog, zinc fingers 1-6, SBP tag (UNK, Homo sapiens, UniProt Q9C0B0, residues 30-357)
UniProt Q9C0B0, sequence (30-357, looked up): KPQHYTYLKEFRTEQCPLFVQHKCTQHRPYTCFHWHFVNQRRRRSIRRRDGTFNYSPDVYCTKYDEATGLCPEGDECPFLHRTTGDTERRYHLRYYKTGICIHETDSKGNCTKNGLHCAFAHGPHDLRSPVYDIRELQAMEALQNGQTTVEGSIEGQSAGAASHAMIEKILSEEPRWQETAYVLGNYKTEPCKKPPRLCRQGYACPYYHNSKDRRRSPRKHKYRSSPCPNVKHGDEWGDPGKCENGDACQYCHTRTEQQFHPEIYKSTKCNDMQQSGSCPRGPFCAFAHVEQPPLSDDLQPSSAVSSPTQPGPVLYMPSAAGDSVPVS
Technique: RNA Bind-n-Seq
Form: RNA
Medium: in vitro
Tested at: 100 nM
Notes: RNA with constant flanks, ends assumed
Reference: input RNA pool
Direction: higher = stronger binding
| Oligonucleotide | bound/input enrichment [ratio] |
| --- | --- |
| GGGAGUUCUACAGUCCGACGAUCGUGAUGUCCUUACUGUCCCCAGCCAGGGCCGGGGACCGGUGUUUCACUGAGGACCUGCAUCCGAAACAUUUUUUAAAUUGUUGUACAGGAAGAGAUGUGUCUAAAACAGCAUCUUAAAGCCAACAGAGGAUUGAGCAUCA | 0.278 |
| GGGAGUUCUACAGUCCGACGAUCUAAUUCAAUGGUUGAGGGUUCAGAACUCAAAAAGGUUCGCUCCAACUCCCGAAUUUAUCACCGGUACUUUUUACUGGAUGCUGACAUGCAGAGCCUAAGGUGGGAGCCAUCUAAGAAGGACAACAGAGGAUUGAGCAUCA | 0.116 |
| GGGAGUUCUACAGUCCGACGAUCGUACUGCCCGUGCAAAUCCCACAACACUGAAUGCAAAGCCGCAAUUUCCACCGUCACAGUCCGGCCGCUUCCGGGCAAUAUUGCCAUGGUUUUACUCAUGUGCAGGUUUUGAAAAUGUACCAACAGAGGAUUGAGCAUCA | 0.475 |

Series 4
Target: RNA binding protein fox-1 homolog 2, RRM domain, GST-SBP tag (RBFOX2, Homo sapiens, UniProt O43251-10, residues 100-194)
Technique: RNA Bind-n-Seq
Form: RNA
Medium: in vitro
Tested at: 365 nM
Notes: natural RNA segment, single round, ends assumed
Reference: no-protein control
Direction: higher = stronger binding
Constant ends, left off below: GGGAGUUCUACAGUCCGACGAUC … UGGAAUUCUCGGGUGCCAA
Target sequence (chain): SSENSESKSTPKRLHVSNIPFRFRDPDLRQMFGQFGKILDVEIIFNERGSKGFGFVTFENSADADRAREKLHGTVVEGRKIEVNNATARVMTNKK
| Oligonucleotide | RBNS enrichment (R) |
| --- | --- |
| CUUUAGCAUUACUUAUUUUUUUUUCCAUUUGAUGGUUCUUACUUUGUAAAAAUUUAAAUAAAUGAAUGUCUAUACUUUUUAUAAAGAAAAGUGAAAAUACCAUGACACUG | 0.934 |
| GUGCCCCAAGUACAGAUGCCAUUACUUCUGCUUUCGUAUCUCCUCAGGCAAAAGUGGAGGGUGCCUUAUGGGCCCUCCUCAUAGGUUGUCUCUGCAUACACGAACCUAAC | 0.358 |
| UCAUAGUGGUAAAUAAUGUAGAUUAUAUAUAUACAUAUAUAUAUAUAUAUAUGCUAUAUAUGGACACACUAUUUUCUUAUGUCAUCUAUGGCAUUUUUUUAUCUGUAUAC | 1.34 |
| AAAAAAGAUGGAUUUCUGCUGUCUUUUGGCCCCUAGUUCCUUGGAAGGGCAAAGGCUAUGAGGUAGAGGGAGGUGACAGGCAUUGCAGGUGGCAGACUGACUUUGGACAG | 0.887 |
| CAGGCAGGGAGUGGAGCUAACAGCUUAGUCACCAGGACCCCCAGACCUGCAAACGUCCCCUCCUGGAAGGGGAAGCCAGGAACAGCAGAACUGCCCACAAAACAAGGCUG | 0.516 |
| AAGGACAUCCGCUUGACUCCCCACUCACCAUCAGGCCACACUUUUAAAGAAAAAUUGUUCUCUAACCAGGAUUGUAACAAAUGUGUAAAUAGUAUUUCUGAGUUGAAAGU | 0.707 |
| AUAUUUGUACAUCUAUGCAAAAUACUUGAAUGGGCCAUGGUGCCUUGUUUUUUGUUGUUGUUGUUAUUUUUUUCUCCUUGUUUGUAUUUAAUUAAAACAAAUUGUCAUGA | 1.53 |
| UGUAUUUUAAUAUUUGUUAUUCUCUCAUGAAUAGAAAUUUAUGUAGAAGCAAACAAAAUACUUUUACCCACUUAAAAAGAGAAUAUAACAUUUUAUGUCACUAUAAUCUU | 0.352 |
| AGGAGAGGACUGGGCCUGAUGGAAGUUAACCCGGAGCUAAGUCACCCAGAGCACAGGAGCUGCCAUGUCAGAUGGGAAAUCUGCCUAUGUCAUACCGUGACAGCCCGCAG | 1.17 |
| CUUACAGAGCUAAGAAUCCAUAGCCAUGGCUCUGUAAGCUAAACCUGAAGAGUGAUAUUUGUACAAUAGCUUUCUUCUUUAUUUAAAUAAACAUUUGUAUUGUAGUUGGG | 0.497 |
| UUGUACAAGAUACACUGGAGAACAAAGGGAACUCAAGAUUCUUCCAGCCACAUGUCACCUGUAGGUAGAAGUAAACUCUGCAGUGCAGCUUCUGCUCUUGGCCCCUCUGG | 0.316 |
| UCUGAAAUGCCCAUGGACUCUGCCUCCCAACCAUUCGUCUCUCACUCCUAGCAGAGCUGUCUGUGCAGACUGUUUCUUAGGAGGCACAGCAAGCUCCAGGGAACCCUCUG | 0.644 |

Series 5
Target: Interferon regulatory factor 5, full length, phosphomimetic (IRF5, Homo sapiens, UniProt Q13568-2, residues 1-514, K96S/S451D/S453D/S456D/S462D)
Technique: protein-binding microarray
Form: double-stranded DNA, one strand shown
Medium: in vitro
Tested at: 250 nM
Notes: 60-bp whole probe
Together with: salmon DNA 0.4 mg/ml
Reference: random background probes
Direction: higher = stronger binding
Constant ends, left off below: GCCTAGCAC … GTCTTGATTCGCTTGACGCTGCTG
| Oligonucleotide | log fluorescence |
| --- | --- |
| GACGGTATCGGTCTCGGGAAGTGCTAG | 5.83 z-score |
| TTAGAGATCAGTTTCGATTAGTGCTAG | 9.23 z-score |
| TTAGGTTTCGACTATCTGTTAGTGCTA | 7.92 z-score |
| GACGGTATCGGGTATGGGGACGTGCTA | 2.35 z-score |
| GATGAACTGAGTATCGAGACGTGCTAG | 1.93 z-score |
| GACGAACTAGGGTTTCGAGACGTGCTA | 0.886 z-score |
| GACGGTTTCCTACTGCTGTCGTGCTAG | 0.457 z-score |
| GACGATATCAGTTTCGTGACGTGCTAG | 4.08 z-score |
| TTAGGTTTCGGGTACCGGTTAGTGCTA | 8.8 z-score |
| TCATGGGTCTTGTCTGGAACTGTGCTA | -0.286 z-score |
| GACGGTATCGGGACTGGGGATGTGCTA | 1.3 z-score |
| TCACATTGCCTATTTTTCACTGTGCTA | 1.08 z-score |
| TCAGTTTTTCATTTTTTACTGTGCTAG | 1.61 z-score |
| GGCCCTATAGGTTTCTATATGTGCTAG | 0.736 z-score |
| GACGATTCCAGTGTCGAGACGTGCTAG | -0.0372 z-score |
| CACAGAACATATTAGTATATGTGCTAG | 0.49 z-score |
| TTAGAACAGAGTATCGATTAGTGCTAG | 5.3 z-score |
| TTAGAACTGGGGACTGGATGAGTGCTA | -0.327 z-score |
| GACGGAGTGGGTCTCGGGACGTGCTAG | -0.516 z-score |
| TCACAATTTGCTTTAGTACTGTGCTAG | 0.412 z-score |
| ATAGATTTCGGGACTGGATTAGTGCTA | 2.12 z-score |
| GAAGGTTCCGGTTTCGGGACGTGCTAG | 4.51 z-score |
| TCACCCCTCTAGGTTCTCACTGTGCTA | -0.144 z-score |
| TTAGGGCTCGGTATCGGTTAGTGCTAG | 4 z-score |
| TCACCTCTTTCACTGGTACTGTGCTAG | 2.66 z-score |
